Experimental data from different studies.
Each numbered part is a random draw from the data of one study; scales do not carry over between parts.

Block 1
Target: Prothrombin, mature alpha-thrombin (F2, Homo sapiens, UniProt P00734)
Method: aptamer microarray, sandwich
Form: DNA with 2'F-ANA
Matrix: in vitro
Tested at: 200 nM
Setting: whole 15-mer aptamer, many near background
With: Cy3 exosite-II aptamer, 400 nM
Reading: higher = stronger binding
Oligonucleotide: GGTTGGTGTGGTTGG
Modification | mean fluorescence intensity [a.u.]
2'F-ANA at 1 2 3 7 11 13 14 15 | 71.9
2'F-ANA at 1 2 3 6 7 10 11 13 14 | 61.2
2'F-ANA at 1 2 4 6 7 8 9 10 11 12 13 14 15 | 51.4
2'F-ANA at 3 4 5 6 11 12 | 182
2'F-ANA at 2 3 4 5 6 8 9 11 12 14 | 50.1
2'F-ANA at 4 7 8 11 13 14 15 | 107
2'F-ANA at 1 3 6 7 8 11 14 15 | 106
2'F-ANA at 3 4 5 6 7 8 9 15 | 94.5
2'F-ANA at 1 3 4 7 10 11 12 13 | 96.5
2'F-ANA at 2 3 6 8 14 | 464
2'F-ANA at 1 2 3 4 5 7 9 10 11 14 15 | 49.3
2'F-ANA at 6 7 8 9 10 12 14 15 | 119
2'F-ANA at 1 2 6 8 10 11 12 14 | 48.1
2'F-ANA at 3 4 5 6 8 12 | 252
2'F-ANA at 2 3 5 6 7 10 11 12 | 67.3
2'F-ANA at 3 4 8 10 13 14 | 200

Block 2
Target: RNA binding protein fox-1 homolog 2, RRM domain, GST-SBP tag (RBFOX2, Homo sapiens, UniProt O43251-10, residues 100-194)
Method: RNA Bind-n-Seq
Form: RNA
Matrix: in vitro
Tested at: 365 nM
Setting: natural RNA segment, single round, ends assumed
Reference: no-protein control
Reading: higher = stronger binding
Constant ends, left off below: GGGAGUUCUACAGUCCGACGAUC … UGGAAUUCUCGGGUGCCAA
Construct (chain): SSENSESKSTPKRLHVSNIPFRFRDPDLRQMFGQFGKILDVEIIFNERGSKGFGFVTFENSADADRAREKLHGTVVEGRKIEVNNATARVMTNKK
Oligonucleotide | RBNS enrichment (R)
AGCACGAGGCCUCAGGUCGGCCCUGUGGCGGGUAGGCAGGAAGGACUGUCCCAGACGAGGGGCUUCCUCUAGAGUCUCACUGCUGGGGAGGAGAGGACUGGGCCUGAUGG | 0.7
UAUACAUAUAAUUAUAUACAUAUAUGUAAUCUCAAUUAGGCAAUUUUAAUAGACUUCACAAAAAUAUUUUAAUAAUCAGACUGAGUGCUCUUGUUUUAUAAAUUUCACUG | 0.663
CUAAUUUUUUGUAUUUUUAGUAGAGACGGUUUCAUCGUGUUAGCCAGGAUGGUCUCGAUCUCCUGACCUUGUGAUCCACCCGCCUCAGCCUCCCAAAGUGCUGAGAUUAC | 0.394
AUUGUGCUAACAAGUUGUGCUAAUAUUUAACUCAGCCAGAGUUUCACUCAUUUGCUAAGCAUUGGGAACAUUCUGUGUAUUUACCUUAAACAUAAAUAAAUUCCUGAGAG | 0.466
AGAGGAAUCAAACUGGUUCCCUUUCUUUCUGGGAACCCCUGCCAUGUUACUCUAAAGACCCCAGCAACCCAGAGAGAGCCCUGCUUCCAUCUUCCCAGGGCAGGACCACA | 0.696
AGUAAUAACAAUGGGACUUAGAGGAGGUAAACAUAACUUAUGUGCCUCAAACCAGCUAGUCCUGGACAAGAUGUCUCUUCAGUAUCUCUGCUAUUGGGUUCAGAUGUGUC | 0.307
UGAUGGGGUCUAAUUCUUAUUACUUCAACAAAUAUUGUUUUGACUUGGGGGGAGGGGCUAUAACCCUGCUAUUUUUCAUUGACUCUAUUGAACUCUUUAGGAUGAUGACU | 0.591
GCUCUGACUCCUAUUUAUCAUAUACUCACUCUGACUCUGAGGAAGGCAGAGAGGUGCCACUUGGCCUACUUGCUUCCUGUCCCCAAGACAGUCCUUUUCUUCUGAAGUAA | 0.436
CCAGCCUCUGGGGACCAAUUGCUUUUACUGUGGUCUGUGGCCUGUCCUGUCUCUGUCAGUGGAGAAGAAAGGCAGUGAGCUGGAUCAGCCAGAGUUCUGGGAGACAACGC | 0.427
UAGGGCUAUGACUAAUAUUUCAGGCCAUUUCCGGUGAAAGAAACUUAGUUUUACAAGAAAAACCAUUUGCUACUGAAUGCUUAAACUAAUUUUAGUGUUUAAUGUUACAU | 0.536
GCACAAUCAAUAAUUUCAGACUGGGUCGCUUGCCCAGUGUUCCUGUGGAGUGGAAUGAAAUCAAUGCUGCCUGGGGCCAGACAGUGCUGCUGCUCCAUGCUUUGGCCAAU | 1.56
AGAGGAGAAUGUGAGCACAUUUGACUGACACGGCCUGGAACCCAGUGCAUCUUUUCACGGCACUGCCGAGACGUACUCCCUGGUGUUGCCGCUCACAGGCCCUCAGCUGU | 7.22

Block 3
Target: Ras GTPase-activating protein-binding protein 1, C-terminal RGG region (G3BP1, Homo sapiens, UniProt Q13283)
Sequence of UniProt Q13283 (whole entry, looked up): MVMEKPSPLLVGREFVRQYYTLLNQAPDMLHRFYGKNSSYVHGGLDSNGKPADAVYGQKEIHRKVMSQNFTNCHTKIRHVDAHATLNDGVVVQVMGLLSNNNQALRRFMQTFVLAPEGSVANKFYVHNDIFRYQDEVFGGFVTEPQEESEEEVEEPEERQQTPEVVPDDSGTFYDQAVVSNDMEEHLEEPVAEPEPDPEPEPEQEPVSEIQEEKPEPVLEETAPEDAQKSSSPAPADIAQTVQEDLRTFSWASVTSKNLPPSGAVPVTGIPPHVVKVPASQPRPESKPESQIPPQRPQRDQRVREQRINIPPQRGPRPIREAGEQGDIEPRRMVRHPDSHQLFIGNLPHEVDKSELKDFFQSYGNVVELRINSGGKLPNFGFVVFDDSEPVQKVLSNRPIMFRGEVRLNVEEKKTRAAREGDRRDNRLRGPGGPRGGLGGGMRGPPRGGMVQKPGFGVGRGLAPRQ
Method: RNA Bind-n-Seq
Form: RNA
Matrix: in vitro
Tested at: 1 µM
Setting: whole 134-nt RNA, ends assumed
With: 150 mM KCl
Reference: input library
Reading: higher = stronger binding
Constant ends, left off below: GGGAGUUCUACAGUCCGACGAUC … UGGAAUUCUCGGGUGUCAAGG
Oligonucleotide | log2 enrichment
UCCUGUGCUACACAUCGUAUGUACCGAAUCGGCCCCCCGGGCCCCCCGGGCCCCCCGGGGAAAGUAUUAUGUUACGCCGUUCGGAUCUGC | -1.49
CCUCAAGUCCUGUGCUACACAUCGUAUGUACCGAAUCGGAGGGGAGGGGAGGGAAAGUAUUAUGUUACGCCGUUCGGAUCUGCACUUCCA | 1.1
UUACUACCUCCGCCUUCAUUUCCGUCAGCAAUCCCGGCGCGGGCUCCCCGGCCCCCGCCAGCCCGCCUCCCCUCGCUGUGCCCGGGACCG | -0.12
CCUCAAGUCCUGUGCUACACAUCGUAUGUACCGAAUCGGGAGGGAGGGAGGGGAAAGUAUUAUGUUACGCCGUUCGGAUCUGCACUUCCA | 3.19
UAACUUUAGAGGAGGAUGUGAUGGAUAUGGCAGUGGACGUGGAUUUGGGGAUGGCUAUAAUGGGUAUGGAGGAGGACCUGGAGGUGGCAA | -1.43
GCAGGAAGUAAAAACAAAUGGAAAUGCUUCGGAUAGUGGCAGGGGUGGGGGUUGCUACGGAAAGGGUGGGAUGGGAGUGGGUAAAGAGUU | 2.49
ACCAUGCAGGUGGGCAUCUUUGGGAAGUGGGGCAAGGGGGGGAUAGGGCGGGGGGUAACACUUUGGGAACAGGUGGUCCCAGGUCGUUUC | 2.18
CUCAAGUCCUGUGCUACACAUCGUAUGUACCGAAUCGGGCCGGGCCGGGGCCGGAAAGUAUUAUGUUACGCCGUUCGGAUCUGCACUUCC | -1.45
CCUGUGCUACACAUCGUAUGUACCGAAUCGGGGUUUUUUUGGGGUGGGGUUUUUUUGGGGAAAGUAUUAUGUUACGCCGUUCGGAUCUGC | 0.569
CAAGUCCUGUGCUACACAUCGUAUGUACCGAAUCGGUUUUGGGUUUUGGGUUUUGGAAAGUAUUAUGUUACGCCGUUCGGAUCUGCACUU | -1.76
CACAGACAACACGCACCCACACAGGCACAGAGGGAAGGGGUUGGGAUGGGGACAGGGUGCACAGCAGGGCGGGGUAGGACCCCAGCCCCU | -0.152
UAACUUUAGAGGAGGAUCUGAUGGAUAUGGCAGUGGACUUGGAUUUGGGGAUGGCUAUAAUGGGUAUGGAGGAGGACCUGGAGGUGGCAA | -1.16
GCAGGAAGUAAAAACAAUUGGAAAUGCUUCGGAUAGUGGCAGGGGUGGGGGUUGCUAAGGAAAGGGUGGGAUGGGAGUGGGUAAAGAGUU | 1.67
CCUGUGCUACACAUCGUAUGUACCGAAUCGGCCCCCCCGGCCCCCCCGGCCCCCCCGGGGAAAGUAUUAUGUUACGCCGUUCGGAUCUGC | -1.94

Block 4
Target: Histone acetyltransferase KAT6A, winged helix 2, GST fusion (KAT6A, Homo sapiens, UniProt Q92794, residues 85-181)
Method: protein binding microarray
Form: double-stranded DNA, one strand shown
Matrix: in vitro
Tested at: not given
Setting: 8-mer, flanks averaged, mean of 2 arrays, mostly near background
Reference: not given
Reading: higher = stronger binding
Construct (chain): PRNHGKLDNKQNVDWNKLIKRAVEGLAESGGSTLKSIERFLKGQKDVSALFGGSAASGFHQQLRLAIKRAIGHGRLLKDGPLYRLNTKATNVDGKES
Oligonucleotide | E-score
CGGTTCGC | 0.199
GAAGTCGC | -0.151
AAGTTTGC | 0.0109
CGGAGTGC | 0.199
AGCAAATC | 0.0155
TATTCCAA | 0.192
AATCTGAG | -0.0411
GAGTTTCA | 0.0744
AAGCACCA | -0.171
GCAAAGAA | 0.111
GAACGATC | -0.0441
ATAGTTTA | 0.0166
AAGGCACT | 0.0602
CTTAGACC | -0.0268
CGCAGACA | 0.141
GAAGGCCC | 0.0778
CCGGTTGC | 0.19
TACCCACA | -0.0296
AGATTGAA | -0.112
AGGGTCAG | -0.0215
CTTAGCCC | 0.0644
AGAACCGG | -0.0796
GACAGTAA | -0.00694
AAGGAATA | -0.0561

Block 5
Target: Interferon regulatory factor 7, full length, phosphomimetic (IRF7, Homo sapiens, UniProt Q92985, residues 1-503, S101K/S471D/S472D/S475D/S476D/S477D/S483D/S484D/S487D)
Method: protein-binding microarray
Form: double-stranded DNA, one strand shown
Matrix: in vitro
Tested at: 250 nM
Setting: 60-bp whole probe
With: salmon DNA 0.4 mg/ml
Reference: random background probes
Reading: higher = stronger binding
Constant ends, left off below: GCCTAGCAC … GTCTTGATTCGCTTGACGCTGCTG
Residues (chain): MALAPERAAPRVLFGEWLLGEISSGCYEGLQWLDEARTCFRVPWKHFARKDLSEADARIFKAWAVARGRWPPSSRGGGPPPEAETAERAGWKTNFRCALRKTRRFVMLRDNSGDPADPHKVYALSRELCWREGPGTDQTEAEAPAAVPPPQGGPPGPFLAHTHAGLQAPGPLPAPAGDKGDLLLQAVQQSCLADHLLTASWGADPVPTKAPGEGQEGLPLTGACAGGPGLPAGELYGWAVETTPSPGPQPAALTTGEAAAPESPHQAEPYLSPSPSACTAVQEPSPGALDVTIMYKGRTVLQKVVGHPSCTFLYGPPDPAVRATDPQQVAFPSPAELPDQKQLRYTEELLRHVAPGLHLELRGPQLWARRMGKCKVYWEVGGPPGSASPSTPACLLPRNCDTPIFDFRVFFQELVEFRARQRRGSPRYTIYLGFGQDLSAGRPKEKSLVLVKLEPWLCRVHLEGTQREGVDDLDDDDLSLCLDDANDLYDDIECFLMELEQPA
Oligonucleotide | log fluorescence [z-score]
TTAGATTTCGTGTTTCGATTAGTGCTA | 5.29
TCACTTCCCCTCTCTTTCACTGTGCTA | 1.24
TTAGGACTGGACACTGGATTAGTGCTA | -0.305
TTCTGTATGGGCATTTTTCTAGTGCTA | -1.14
GGGATTTTGTCCTCCCCTCCCGTGCTA | 0.181
GACGGACTGGGCTTTCGGGACGTGCTA | -0.787
TTAGGTATCGGGTTTCCGTTAGTGCTA | 3.23
TTTCTTACATGCATCATAACGTGCTAG | 0.954
TTAGGTTCCCTTTTCCGTTAGTGCTAG | 4.09
TCACTTATCCTTCCCCTACTGTGCTAG | 1.44
GACGGTCTCGGACGGGGGACGTGCTAG | 0.725
GACGGACTGCGGACTGGGGACGTGCTA | -0.637
TTAGGACTGCTTATCCATTAGTGCTAG | 0.186
TGAGGTTTCGGGACTGGGTTAGTGCTA | 3.12
GACGGTGTCGGGTTTCGGGACGTGCTA | 0.771
AGTGGTATAGCACTAAGGGAGTGCTAG | -1.19
GACGGACTGCTTATCCTGATGTGCTAG | -0.392
ATCTTAATAAGGTTTCCAATCGTGCTA | 2.49
TTAGGTAGCCTTATCCTTTAGTGCTAG | -0.578

Block 6
Target: Sal-like protein 4, full length isoform B (SALL4, Homo sapiens, UniProt Q9UJQ4-2, residues 1-616)
Method: universal PBM
Form: double-stranded DNA, one strand shown
Matrix: in vitro
Tested at: not given
Setting: 8-mer, flanks averaged, mean of replicates
Reading: higher = stronger binding
Oligonucleotide | E-score
GACAGTTA | 0.108
CAGATGCC | -0.172
ATCAATGC | -0.00358
TGGACAAA | 0.0626
GTTGACTA | 0.0393
CATACGGA | -0.0649
CAACCTGG | -0.107
AGGAGGTA | -0.0222
CCGTGTCA | -0.22
ACTCTTAA | 0.177
ATCCTGGC | -0.133
CTCTGATA | 0.116
GGCACCCC | -0.278
GCATAACA | 0.251
AAGACCGT | -0.107
ACGTTCCA | -0.00994
GAACTAAC | -0.0699
CTTAATCC | 0.0274
CCGTCTAG | -0.228

For quick reference, copied from above (block 4):
Oligonucleotide | E-score
AAGGCACT | 0.0602
CTTAGACC | -0.0268
CGCAGACA | 0.141
GAAGGCCC | 0.0778
CCGGTTGC | 0.19
TACCCACA | -0.0296
AGATTGAA | -0.112
AGGGTCAG | -0.0215
CTTAGCCC | 0.0644
AGAACCGG | -0.0796
